Assay results from different studies.
A part holds a random share of what one study measured. Substitutions count along the parent as printed.

Block 1
Target: CCNB3, cyclin fold, Cln2 fusion (human)
Method: yeast growth competition, sequencing
Matrix: yeast
Notes: weak parent motif
Baseline: not given
Direction: higher = stronger binding
Quantity: normalised enrichment score
Starting sequence: RB1 docking peptide (human); PKPLKKLRFDIEG
PKPLKKLRFTIEG [D10T]: -0.28
PNPLKKLRFDIEG [K2N]: 0.164
PKRLKKLRFDIEG [P3R]: 0.423
KKPLKKLRFDIEG [P1K]: 0.805
PKPLKKLRFYIEG [D10Y]: 0.265
PRPLKKLRFDIEG [K2R]: -0.142
PKPLKKQRFDIEG [L7Q]: -0.266
PKPMKKLRFDIEG [L4M]: 0.353
PKPLKKLRFDSEG [I11S]: 0.0401
PKGLKKLRFDIEG [P3G]: 0.426
PKPIKKLRFDIEG [L4I]: 0.411
PKPLKELRFDIEG [K6E]: -0.0629
PKPLKKLHFDIEG [R8H]: 0.686
PKPLKKLRFDHEG [I11H]: 0.324
PKPLKKLRFDPEG [I11P]: -0.174
PKPLKKLFFDIEG [R8F]: 0.0457
PKPLKNLRFDIEG [K6N]: -0.117
PKPLKVLRFDIEG [K6V]: 0.501
PKPLKKLRFIIEG [D10I]: -0.985
PKPVKKLRFDIEG [L4V]: 0.553
PKPLKKLRFDREG [I11R]: -0.518
PKPNKKLRFDIEG [L4N]: 0.284
PKPWKKLRFDIEG [L4W]: -0.0434
PKPLKKLRADIEG [F9A]: 0.501
PKPLKKLRFDMEG [I11M]: -0.222

Block 2
Target: Interferon regulatory factor 3, full length, phosphomimetic (IRF3, Homo sapiens, UniProt Q14653, residues 1-427, S386D/S396D/S398D/S402D/T404D/S405D)
Method: protein-binding microarray
Molecule type: double-stranded DNA, one strand shown
Matrix: in vitro
Concentration: 2540 nM top
Notes: 60-bp whole probe
With: salmon DNA 0.4 mg/ml
Baseline: random background probes
Direction: higher = stronger binding
Quantity: fitted relative affinity
All sequences stand within: GCCTAGCAC … GTCTTGATTCGCTTGACGCTGCTG
Construct (chain): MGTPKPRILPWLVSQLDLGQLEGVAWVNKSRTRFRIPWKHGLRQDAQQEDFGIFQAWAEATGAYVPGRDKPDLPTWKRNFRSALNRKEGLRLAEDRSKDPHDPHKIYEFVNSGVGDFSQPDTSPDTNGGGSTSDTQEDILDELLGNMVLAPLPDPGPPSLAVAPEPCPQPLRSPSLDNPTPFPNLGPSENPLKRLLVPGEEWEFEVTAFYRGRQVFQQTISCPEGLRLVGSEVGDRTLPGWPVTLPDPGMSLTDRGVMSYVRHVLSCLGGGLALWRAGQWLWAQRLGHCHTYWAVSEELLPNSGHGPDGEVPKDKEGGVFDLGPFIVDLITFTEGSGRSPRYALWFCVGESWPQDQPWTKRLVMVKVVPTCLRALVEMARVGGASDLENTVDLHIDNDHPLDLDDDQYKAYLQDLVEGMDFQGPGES
AATGCCCTCGGTTTACAGGGGTGCTAG: -0.248 z-score
GACGAACTGAGACTGGAGCCGTGCTAG: -0.245 z-score
TTAGGTTTCGGTCTCGTTTAGTGCTAG: 8.95 z-score
TGTGGTCTGTTTCTGATATGGTGCTAG: 2.57 z-score
GACGCTATCGGGTATCGGGACGTGCTA: 0.331 z-score
GACGGACTGGGACTGGGGTCGTGCTAG: -0.847 z-score
GGGCCCATCATTCCGACCCTGTGCTAG: -0.138 z-score
TTAGGTTTCGGTCTCGGTAAGTGCTAG: 8.87 z-score
GACGGTATCTTTCTCCTGACGTGCTAG: 2.17 z-score
GACGGTTCCGGTTTCCGGACGTGCTAG: 6.46 z-score
GACGGTATCGGTTTCCGGACGTGCTAG: 6.94 z-score
GACGGTCTCCTACTGCTGAAGTGCTAG: 1.24 z-score
TACGATATCAGTCTCGAGACGTGCTAG: 1.04 z-score
TTATGTTTCGGGACTGGGTTAGTGCTA: 3.23 z-score
TTAGATTTCAGTTCAGATTAGTGCTAG: 2.2 z-score
GACGGACAGGGTATCGGGACGTGCTAG: -0.235 z-score
TCAATGATTGGTTGAACACTGTGCTAG: -0.653 z-score
GACGGACTGTTTATCCTGACGTGCTAG: 0.623 z-score
TTAGATATCGTGTTTCGATTAGTGCTA: 1.63 z-score
AGGGGACTGACTCTTCAGCACGTGCTA: -0.853 z-score
TCATTTTCATTTTCTGAAACTGTGCTA: 5 z-score
GACGGACTGGTGACTGGGGACGTGCTA: -0.864 z-score
TTAGGCCTGGACTTTCGGTTAGTGCTA: 0.493 z-score

Block 3
Target: RING finger protein unkempt homolog, zinc fingers 1-6, GST-SBP tag (UNK, Homo sapiens, UniProt Q9C0B0, residues 30-357)
Method: RNA Bind-n-Seq
Molecule type: RNA
Matrix: in vitro
Concentration: not given
Notes: RNA with constant flanks, human and mouse sites, ends assumed
Baseline: input RNA pool
Direction: higher = stronger binding
Quantity: bound/input enrichment
All sequences stand within: GGGAGUUCUACAGUCCGACGAUC … CAACAGAGGAUUGAGCAUCA
Residues (chain): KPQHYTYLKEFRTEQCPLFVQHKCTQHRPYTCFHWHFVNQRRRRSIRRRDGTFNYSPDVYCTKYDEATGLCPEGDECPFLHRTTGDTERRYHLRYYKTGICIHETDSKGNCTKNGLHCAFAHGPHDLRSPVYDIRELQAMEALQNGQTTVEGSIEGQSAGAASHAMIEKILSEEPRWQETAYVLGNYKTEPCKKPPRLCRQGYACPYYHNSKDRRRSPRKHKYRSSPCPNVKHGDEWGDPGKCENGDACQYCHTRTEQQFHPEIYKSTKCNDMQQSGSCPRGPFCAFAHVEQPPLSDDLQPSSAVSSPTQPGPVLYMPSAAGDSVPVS
AGGCCACUGUGGUUGAAUUGGGAGAACCCAGACAUCAUGUCAGAGCUACUGUUUCAGAACAAUGAGAUCAUCUUUAAAAAUGGCGACGACUUACGGCAAGAUAUGUUAACCCUUCAGAUC: 0.106 ratio
GCGCUGGGGGUAAGGGUUACAAAUAAUGAAUUAAAUCAUAUUGGUCAUUAGGACAGAUGCUAGCUGGCUUUUCUAUUUUAACUGACAAGUCCAGAGCAUAUACAAGUGCAUGAAGUGAGA: 1.29 ratio
CCUGUUCGAGGCAGCUAUCUUACAGACUGCAUGAAUGUAAGAGUAGGAAUGGGGUGGGUGUUAGGAUCAUUCGGGAUCUUCGACACUUGAAACAAAAUUACACCUGGGAGCUGCAGCCAG: 0.373 ratio
GCUGGCUUUCUAUCAUUUUUAUGUUUUAAUGCAAAGGAAAUUUUAAAAUGUUCUGGAAGUGUUUUUGAUUAAGCAAUGCAGCCUAGAAGCAAUGGUUCUGUUCAAUCAUUCAGAUGUUAG: 0.342 ratio
CAGAGGAACCAAUGGGCAUUGGUGGCUCCUGUACCACAUUCCUUUUAUUCAUUUGAACUAAUAGUGGUUCAGAAUUAUCUUUACGCUGUCAACAGUAAGCGCAUGCUCUGCUAUGAUCCU: 0.207 ratio
ACGGACGGUCUGGAUGCCUCCUCCAGCCAGACAGUGACCCCAGUAGCAGAACCGCUGAGUUCUGAGCCGACACCACCAGAUGGGCCCACUUCCUCCUUGGGUCCCUUGGAUCUGCUGUCU: 0.287 ratio
AUGGGCUUUGAUGCUCUUCUCCACAAUGCUAACCCCCUCCCUGUCUUAACCAAUACCGUGUUCCUGACUGUUACUGCUCCACUGACUCUGCCUUGGGACCAUAUCCAAAGUACAUUGCUC: 0.801 ratio
GGAGCCAUAUAGCACUGUCACCCCUUAUUUGAGGAACUGAUGUUUGAAAGGCUGUUCUUUUCUCUCUUAAUGUCAUUUCUUUAAAAAUACAUGUGCAUACUACACACAGUAUAUAAUGCC: 0.362 ratio
GUAUAUCAAGGAGUGAAGAAACACGGCUUCUUACAGCCUCAUUUUUUGGCAGAACAAGAUAUAGUUAUCAUUACCUAUGAUGUUCUUCGUUCAGAACUAAACUAUGUCAAUAUCCCACAU: 0.0919 ratio
AAGGUAAGACUUAUUUGUAGUAGAUAAAUAGCCACCAUGGAGACCAAGGACCACAAGAAACAUAGGAAGAAGCACAGUGGGCCUAAAGCUGAGAAGAAAAAGAAACGGCACCUGCAAGAC: 1.09 ratio
CCUUUCUUAGCAGUUAACCGAGAGCGGCGCCUCCCUCCGCGAGGAAACGGCAGCGUGUGCUGUAGCGUGGGUAUGGCCGACUACUCCACAGUGCCUCCGCCGUCGUCUGGCUCGGCUGGC: 0.3 ratio

Block 4
Target: RNA binding protein fox-1 homolog 2, RRM domain, GST-SBP tag (RBFOX2, Homo sapiens, UniProt O43251-10, residues 100-194)
Method: RNA Bind-n-Seq
Molecule type: RNA
Matrix: in vitro
Concentration: 365 nM
Notes: natural RNA segment, single round, ends assumed
Baseline: no-protein control
Direction: higher = stronger binding
Quantity: RBNS enrichment (R)
All sequences stand within: GGGAGUUCUACAGUCCGACGAUC … UGGAAUUCUCGGGUGCCAA
Target sequence (chain): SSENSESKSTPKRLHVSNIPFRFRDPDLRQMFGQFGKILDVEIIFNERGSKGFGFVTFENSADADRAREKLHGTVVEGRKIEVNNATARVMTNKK
CAGCAUUUUCCUGCCAUGCAAAGGAUUAAAACUUAGUUUACACUAUGUGGUUACAAAUAUAUGUCAAUGUACAUUUUGAACAUAUUUAUGUGCUAUGGAAGGAAAUGCUG: 0.339
GUAAAUGUUUAUAUAAAUACCAAAUUGCAGCAUCCCCAAAAUGAAUAAAGCCUUUUUACUUGUGGGUGCAAUCGAUUUUUUUUCUUUCUCCUUUCUUUCAAGUGUCGUGA: 0.405
AAAUUACUUAUAAAUUUUUUAUAGUUGUAUUUUUGACCUGCCUUUUAUAUGUAUGAAUAUUUCAUAGUUUUGCAUAUCAGAUGUAGGCAUACAGACAAAUACAUAAACCA: 0.855
AGGGAUAAAAUUUAACUUUAUUUUUCUACACAUCUGUUGCCAGGUGAGGCACGUGCUUUGAAGCAGAUGCCUUCAGCCCUCCCUGCUGGGAGGUGGUCUCUCAAGCUCUG: 0.31
UAAACUGUACUGUUUGCAAGUAGUUUAUAGAAAUUUUGUUUUAAGUCUUCAAAUACCUUGAAAAAAAAUAGACUGUAUGUUGAAAAUUGUAUUGAAAUAAAGUAGAAAAU: 0.608
ACACUCAUCCCUGGUCGUCUAUCCCAGUGUGUGUUUAACAUUCACAGCCCAGAACCACAGAUGUGUCUGGGAGAGCCUGGCAAGGCAUUCCUCAUCACCAUCGUGUUUGC: 0.294
UUAUUAAAAGCAAGUUUCUUUGUAUUCCUCACCCUAGAUUUGUAUAAAUGCCUUUUUGUCCAUCCCUUUUUUCUUUGUUGUUUUUGUUGAAAACAAACUGGAAACUUGUU: 0.451
UGUCCUAGGGCGGAGCCAGGCGGUCCUGAGGGGGAGAUGAAUCCUUAGAGGAGCGCUGUCCCUAUCCCUUGCUCCUUCUGGCCGGUCCGCAUUUCUGUUCACUAACCCCA: 0.28
CCAGAACUAAAUUACAUAGAUGAAUACUCCUGCUCCAGUGGCCUGGAUACCAAUCUCUCCUGUCUUUAAUGUUAUUUUCAAAGACUACUCUCAAGAUCCAUUAGCUUUUA: 0.554
AUGACUUCCUAGGGUUCUGAAAUUCAUAGACUAAGAGAAAACUGUGUAUAGCUUGCCCGAACAGGAGUCCUUACUGAUAUUUAUUGAACAGUCGAUUCCCCUACCCGCCC: 1.12
UUAUUUCAAGACAAUGCCUUAUAUCACAUUGGAGGAGUUUGAAUACUUAACAGGUUCUUUGUCAACAUGGAGACAUUAACAUGGUAGCUCACUGACUGGGUCUCUUCAGC: 0.359
AAAGAUUUGAUAACUUUUCUAAUGCCUGACUAGUAAGUUUUAAAACAUCAUUCUUUAAAAGAAUAGUUUAAUACUUUUGGUUAUUCCAAUCUUCAAUGUUAACCCAAAGG: 1.63

Block 5
Target: Histone acetyltransferase KAT6A, both winged helices, GST fusion (KAT6A, Homo sapiens, UniProt Q92794, residues 1-181)
Method: protein binding microarray
Molecule type: double-stranded DNA, one strand shown
Matrix: in vitro
Concentration: not given
Notes: 8-mer, flanks averaged, mean of 2 arrays, mostly near background
Baseline: not given
Direction: higher = stronger binding
Quantity: E-score
Construct (chain): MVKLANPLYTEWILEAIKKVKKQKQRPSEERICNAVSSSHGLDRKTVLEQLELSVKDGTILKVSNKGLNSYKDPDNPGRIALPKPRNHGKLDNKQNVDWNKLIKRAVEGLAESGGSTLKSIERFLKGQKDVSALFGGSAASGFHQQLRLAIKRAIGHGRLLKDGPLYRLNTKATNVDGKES
CACTTTGC: -0.0808
AAGTGTCG: 0.00626
ATTATTTA: -0.0206
CCTAGAAA: -0.0708
GCCCACGC: 0.04
AACTATGA: -0.0593
GAGGGGAC: -0.185
AACTAGCG: 0.278
ATTCGAAT: -0.207
GATAAAGA: -0.0753
GATTACTA: -0.0309
GCGAGCGA: 0.087
GAGATAGA: -0.179
GAAATTAA: -0.0132
GATGTGCC: -0.0556
CCGTGATC: 0.201
CTCTCATA: -0.214
TCCGCGGA: 0.314
GTTAAAAA: -0.073
CCCCCCGA: 0.0683
ACCCGGGA: 0.195
CGCGTTAC: 0.296
